# Assay results of several laboratories.
# Compare with care: the assays were run in different laboratories.
# Partner: itself
# B1: SPOP E47K (Homo sapiens, UniProt O43791); sequence looked up; chain MSRVPSPPPPAEMSSGPVAESWCYTQIKVVKFSYMWTINNFSFCREKMGEVIKSSTFSSGANDKLKWCLRVNPKGLDEESKDYLSLYLLLVSCPKSEVRAKFKFSILNAKGEETKAMESQRAYRFVQGKDWGFKKFIRRDFLLDEANGLLPDDKLTLFCEVSVVQDSVNISGQNTMNMVKVPECRLADELGGLWENSRFTDCCLCVAGQEFQAHKAILAARSPVFSAMFEHEMEESKKNRVEINDVEPEVFKEMMCFIYTGKAPNLDKMADDLLAAADKYALERLKVMCEDALCSNLSVENAAEILILADLHSADQLKTQAVDFINYHASDVLETSGWKSMVVSHPHLVAEAYRSLASAQCPFLGPPRKRLKQS
# B2: RAD52 1-418 K152A/R153A (Homo sapiens, UniProt P43351); chain MSGTEEAILGGRDSHPAAGGGSVLCFGQCQYTAEEYQAIQKALRQRLGPEYISSRMAGGGQKVCYIEGHRVINLANEMFGYNGWAHSITQQNVDFVDLNNGKFYVGVCAFVRVQLKDGSYHEDVGYGVSEGLKSKALSLEKARKEAVTDGLAAALRSFGNALGNCILDKDYLRSLNKLPRQLPLEVDLTKAKRQDLEPSVEEARYNSCRPNMALGHPQLQQVTSPSRPSHAVIPADQDCSSRSLSSSAVESEATHQRKLRQKQLQQQFRERMEKQQVRVSTPSAEKSEAAPPAPPVTHSTPVTVSEPLLEKDFLAGVTQELIKTLEDNSEKWAVTPDAGDGVVKPSSRADPAQTSDTLALNNQMVTQNRTPHSVCHQKPQAKSGSWDLQTYSADQRTTGNWESHRKSQDMKKRKYDPS
# B3: TOP2 C180A/C731A/Q807C (Saccharomyces cerevisiae, UniProt P06786); AlexaFluor 488/546 labels; sequence looked up; chain MSTEPVSASDKYQKISQLEHILKRPDTYIGSVETQEQLQWIYDEETDCMIEKNVTIVPGLFKIFDEILVNAADNKVRDPSMKRIDVNIHAEEHTIEVKNDGKGIPIEIHNKENIYIPEMIFGHLLTSSNYDDDEKKVTGGRNGYGAKLCNIFSTEFILETADLNVGQKYVQKWENNMSIAHPPKITSYKKGPSYTKVTFKPDLTRFGMKELDNDILGVMRRRVYDINGSVRDINVYLNGKSLKIRNFKNYVELYLKSLEKKRQLDNGEDGAAKSDIPTILYERINNRWEVAFAVSDISFQQISFVNSIATTMGGTHVNYITDQIVKKISEILKKKKKKSVKSFQIKNNMFIFINCLIENPAFTSQTKEQLTTRVKDFGSRCEIPLEYINKIMKTDLATRMFEIADANEENALKKSDGTRKSRITNYPKLEDANKAGTKEGYKCTLVLTEGDSALSLAVAGLAVVGRDYYGCYPLRGKMLNVREASADQILKNAEIQAIKKIMGLQHRKKYEDTKSLRYGHLMIMTDQDHDGSHIKGLIINFLESSFPGLLDIQGFLLEFITPIIKVSITKPTKNTIAFYNMPDYEKWREEESHKFTWKQKYYKGLGTSLAQEVREYFSNLDRHLKIFHSLQGNDKDYIDLAFSKKKADDRKEWLRQYEPGTVLDPTLKEIPISDFINKELILFSLADNIRSIPNVLDGFKPGQRKVLYGCFKKNLKSELKVAQLAPYVSEATAYHHGEQSLAQTIIGLAQNFVGSNNIYLLLPNGAFGTRATGGKDAAAARYIYTELNKLTRKIFHPADDPLYKYICEDEKTVEPEWYLPILPMILVNGAEGIGTGWSTYIPPFNPLEIIKNIRHLMNDEELEQMHPWFRGWTGTIEEIEPLRYRMYGRIEQIGDNVLEITELPARTWTSTIKEYLLLGLSGNDKIKPWIKDMEEQHDDNIKFIITLSPEEMAKTRKIGFYERFKLISPISLMNMVAFDPHGKIKKYNSVNEILSEFYYVRLEYYQKRKDHMSERLQWEVEKYSFQVKFIKMIIEKELTVTNKPRNAIIQELENLGFPRFNKEGKPYYGSPNDEIAEQINDVKGATSDEEDEESSHEDTENVINGPEELYGTYEYLLGMRIWSLTKERYQKLLKQKQEKETELENLLKLSAKDIWNTDLKAFEVGYQEFLQRDAEARGGNVPNKGSKTKGKGKRKLVDDEDYDPSKKNKKSTARKGKKIKLEDKNFERILLEQKLVTKSKAPTKIKKEKTPSVSETKTEEEENAPSSTSSSSIFDIKKEDKDEGELSKISNKFKKISTIFDKMGSTSATSKENTPEQDDVATKKNQTTAKKTAVKPKLAKKPVRKQQKVVELSGESDLEILDSYTDREDSNKDEDDAIPQRSRRQRSSRAASVPKKSYVETLELSDDSFIEDDEEENQGSDVSFNEED
# B4: cas1 1-324 (Pseudomonas aeruginosa, UniProt Q02ML7); chain MDDISPSELKTILHSKRANLYYLQHCRVLVNGGRVEYVTDEGRHSHYWNIPIANTTSLLLGTGTSITQAAMRELARAGVLVGFCGGGGTPLFSANEVDVEVSWLTPQSEYRPTEYLQRWVGFWFDEEKRLVAARHFQRARLERIRHSWLEDRVLRDAGFAVDATALAVAVEDSARALEQAPNHEHLLTEEARLSKRLFKLAAQATRYGEFVRAKRGSGGDPANRFLDHGNYLAYGLAATATWVLGIPHGLAVLHGKTRRGGLVFDVADLIKDSLILPQAFLSAMRGDEEQDFRQACLDNLSRAQALDFMIDTLKDVAQRSTVSA
# B5: TNKS 1026-1092 (Homo sapiens, UniProt O95271); sequence looked up; chain GLDMNISQFLKSLGLEHLRDIFETEQITLDVLADMGHEELKEIGINAYGHRHKLIKGVERLLGGQQG
# B6: SPOP M48I (Homo sapiens, UniProt O43791); sequence looked up; chain MSRVPSPPPPAEMSSGPVAESWCYTQIKVVKFSYMWTINNFSFCREEIGEVIKSSTFSSGANDKLKWCLRVNPKGLDEESKDYLSLYLLLVSCPKSEVRAKFKFSILNAKGEETKAMESQRAYRFVQGKDWGFKKFIRRDFLLDEANGLLPDDKLTLFCEVSVVQDSVNISGQNTMNMVKVPECRLADELGGLWENSRFTDCCLCVAGQEFQAHKAILAARSPVFSAMFEHEMEESKKNRVEINDVEPEVFKEMMCFIYTGKAPNLDKMADDLLAAADKYALERLKVMCEDALCSNLSVENAAEILILADLHSADQLKTQAVDFINYHASDVLETSGWKSMVVSHPHLVAEAYRSLASAQCPFLGPPRKRLKQS
# B7: NINJ1 x (Homo sapiens, UniProt Q92982); sequence looked up; chain MDSGTEEYELNGGLPPGTPGSPDASPARWGWRHGPINVNHYASKKSAAESMLDIALLMANASQLKAVVEQGPSFAFYVPLVVLISISLVLQIVVGVLLIVLVKYDLNNPAKHAKLDQLNNAATILVFIIVVVNIFITAFGVQKPLMDMAPQQ
# B8: dlg1 1-97 R44A (Drosophila melanogaster, UniProt P31007); sequence looked up; chain MPVKKQEAHRALELLEDYHARLSEPQDRALRIAIERVIRIFKSALFQALLDIQEFYELTLLDDSKSIQQKTAETLQIATKWEKDGQAVKIADFIKSS
# B9: Gm4951 S186A/R189A/N190A/E191A (Mus musculus, UniProt Q3UED7); sequence looked up; chain MGQLFSSRRSEDQDLSSSFIEYLKECEKGINIIPHEIITSIEINMKKGNIQEVNSTVRDMLREIDNTPLNVALTGETGSGKSSFINTLRGIGHEEGGAAHTGVTDKTKERHPYEHPKMPNVVFWDLPGTGSEDFQPKTYLEKMKFYEYDFFIIISATRFKKNDIDLAKAIGIMKKEFYFVRTQVDADLAAAEDFKPQTFDREKVLQDIRLNCVNTFRENGIAEPPIFLISNKNVCHYDFPVLMDKLISDLPVFKRQNFMFSLPNITDSVIEKKRNFLRWKTWLEGFADGLLSFFLESDLETLEKSMKFYRTVFGVDDASLQRLARAWEIDQVDQVRAMIKSPAVFTPTDEETIQERLSRYNQEFCLANGYLLPKNHCREILYLKLYFLDMVTEDAKTLLKEICLRN
# B10: GLRA1 C290S/C345A/A41C (Homo sapiens, UniProt P23415-2); MTS-benzophenone-alkyne at C41; sequence looked up; chain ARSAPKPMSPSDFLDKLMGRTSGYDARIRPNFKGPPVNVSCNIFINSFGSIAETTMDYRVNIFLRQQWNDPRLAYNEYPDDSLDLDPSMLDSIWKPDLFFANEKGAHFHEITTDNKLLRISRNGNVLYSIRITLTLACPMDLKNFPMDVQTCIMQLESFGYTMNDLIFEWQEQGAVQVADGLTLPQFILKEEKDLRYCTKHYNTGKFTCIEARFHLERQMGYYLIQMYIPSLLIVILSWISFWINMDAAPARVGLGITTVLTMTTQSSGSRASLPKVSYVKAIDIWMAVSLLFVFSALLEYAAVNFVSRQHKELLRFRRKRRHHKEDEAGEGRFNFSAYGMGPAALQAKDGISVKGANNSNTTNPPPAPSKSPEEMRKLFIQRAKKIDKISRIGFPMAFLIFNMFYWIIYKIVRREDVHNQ
# B11: SPOP 28-359 (Homo sapiens, UniProt O43791); sequence looked up; chain KVVKFSYMWTINNFSFCREEMGEVIKSSTFSSGANDKLKWCLRVNPKGLDEESKDYLSLYLLLVSCPKSEVRAKFKFSILNAKGEETKAMESQRAYRFVQGKDWGFKKFIRRDFLLDEANGLLPDDKLTLFCEVSVVQDSVNISGQNTMNMVKVPECRLADELGGLWENSRFTDCCLCVAGQEFQAHKAILAARSPVFSAMFEHEMEESKKNRVEINDVEPEVFKEMMCFIYTGKAPNLDKMADDLLAAADKYALERLKVMCEDALCSNLSVENAAEILILADLHSADQLKTQAVDFINYHASDVLETSGWKSMVVSHPHLVAEAYRSLASA
# B12: TRIM5 1-135 (Rhesus macaque, UniProt Q0PF16); sequence looked up; chain MASGILLNVKEEVTCPICLELLTEPLSLHCGHSFCQACITANHKKSMLYKEGERSCPVCRISYQPENIQPNRHVANIVEKLREVKLSPEEGQKVDHCARHGEKLLLFCQEDSKVICWLCERSQEHRGHHTFLMEE
# B13: racE T25N/S192D (Dictyostelium discoideum, UniProt Q23862); sequence looked up; chain MSEDQGSGATRVKLVVVGDGAVGKNCLLICYAQNDFPVDYVPTVFENYTATRKRGNEDIKVHLWDTAGQEEYDRLRPLSYPGADVVLLCFSTISQSSYEAIRDKWAPEVNHYIPDVPSILVGTKIDLREQQHPDPNSGKFEPITADMGISMQKQIKAKKYLEVSAKTRQGLEEVFSAAIEIVLESRGMDKKDQDGSSSASGVPSGDKPTKGKAGKKKSGCIIL
# B14: lexA K156A (Escherichia coli, UniProt P0A7C2); sequence looked up; chain MKALTARQQEVFDLIRDHISQTGMPPTRAEIAQRLGFRSPNAAEEHLKALARKGVIEIVSGASRGIRLLQEEEEGLPLVGRVAAGEPLLAQQHIEGHYQVDPSLFKPNADFLLRVSGMSMKDIGIMDGDLLAVHKTQDVRNGQVVVARIDDEVTVARLKKQGNKVELLPENSEFKPIVVDLRQQSFTIEGLAVGVIRNGDWL
# Sequence of UniProt Q9NRZ9 (whole entry, looked up): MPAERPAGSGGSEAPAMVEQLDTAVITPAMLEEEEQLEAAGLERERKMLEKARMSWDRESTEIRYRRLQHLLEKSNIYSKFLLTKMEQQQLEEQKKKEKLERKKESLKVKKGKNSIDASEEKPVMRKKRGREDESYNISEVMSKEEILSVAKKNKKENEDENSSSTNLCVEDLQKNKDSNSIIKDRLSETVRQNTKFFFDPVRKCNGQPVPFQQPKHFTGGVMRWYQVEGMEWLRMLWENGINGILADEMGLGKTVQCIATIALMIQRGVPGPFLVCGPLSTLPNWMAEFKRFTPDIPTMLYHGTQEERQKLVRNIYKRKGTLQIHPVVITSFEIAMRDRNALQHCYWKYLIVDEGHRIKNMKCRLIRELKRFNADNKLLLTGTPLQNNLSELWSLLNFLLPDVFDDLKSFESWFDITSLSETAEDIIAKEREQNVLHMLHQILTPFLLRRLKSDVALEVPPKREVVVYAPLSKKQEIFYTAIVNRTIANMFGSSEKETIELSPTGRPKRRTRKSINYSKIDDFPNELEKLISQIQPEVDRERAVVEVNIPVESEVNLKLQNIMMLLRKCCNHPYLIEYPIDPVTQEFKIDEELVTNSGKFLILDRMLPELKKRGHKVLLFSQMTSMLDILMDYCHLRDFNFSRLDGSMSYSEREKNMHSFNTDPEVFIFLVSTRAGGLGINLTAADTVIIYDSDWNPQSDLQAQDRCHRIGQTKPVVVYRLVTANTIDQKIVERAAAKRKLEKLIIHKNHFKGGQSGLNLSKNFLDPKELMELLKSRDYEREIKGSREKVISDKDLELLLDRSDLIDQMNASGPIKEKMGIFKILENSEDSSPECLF
Substance,test,conditions,binding
B1 (SPOP E47K),negative-stain TEM,,binds
B2 (RAD52 1-418 K152A/R153A),mass photometry,,binds
"HELLS (Homo sapiens, UniProt Q9NRZ9)",SEC,,binds
B3 (TOP2 C180A/C731A/Q807C),FRET or BRET,"added: ADP, ATP, ADPNP",binds
B4 (cas1 1-324),cryo-EM,,binds
B5 (TNKS 1026-1092),SEC,,binds
B6 (SPOP M48I),negative-stain TEM,,binds
B7 (NINJ1 x),negative-stain EM,,binds
B8 (dlg1 1-97 R44A),SEC,,binds
B9 (Gm4951 S186A/R189A/N190A/E191A),mass photometry,,binds
B10 (GLRA1 C290S/C345A/A41C),cross-linking,,binds
B11 (SPOP 28-359),cross-linking,,binds
B12 (TRIM5 1-135),AUC,sedimentation velocity,binds
B13 (racE T25N/S192D),SEC,,binds
B14 (lexA K156A),cryo-EM,,binds
